Published values collected from several papers.
A part holds a random share of what one study measured. Positions count from the first letter of the parent shown.

Block 1
Target: Homeobox protein Hox-B13, full length (HOXB13, Homo sapiens, UniProt Q92826, residues 1-284)
UniProt Q92826, sequence (whole entry, looked up): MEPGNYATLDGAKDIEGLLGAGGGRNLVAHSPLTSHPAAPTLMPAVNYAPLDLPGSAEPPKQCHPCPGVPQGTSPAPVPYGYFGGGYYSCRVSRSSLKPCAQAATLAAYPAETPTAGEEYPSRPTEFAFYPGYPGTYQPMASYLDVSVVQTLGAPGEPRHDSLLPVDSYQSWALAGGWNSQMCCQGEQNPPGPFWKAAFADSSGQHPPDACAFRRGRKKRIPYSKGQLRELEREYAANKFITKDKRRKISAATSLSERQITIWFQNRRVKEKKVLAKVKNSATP
Technique: protein-binding microarray
Molecule type: hairpin DNA
Medium: in vitro
Tested at: not given
Setting: whole hairpin DNA, median over replicate spots
Baseline: not given
Direction: higher = stronger binding
| Strand | median fluorescence |
| --- | --- |
| GAGGCCGTTTTATTGGCGCCTCCTGGCGCCAATAAAACGGCCTCACACTC (5mC at 17) | 5280 a.u. |
| GAGGCCGTTCGATTGGGGCCTCCTGGCCCCAATCGAACGGCCTCACACTC | 3950 a.u. |
| GAGGCCGTATTACGAGGGCCTCCTGGCCCTCGTAATACGGCCTCACACTC | 4470 a.u. |
| GAGGCCGTTTTACCAGGGCCTCCTGGCCCTGGTAAAACGGCCTCACACTC (5mC at 14) | 4240 a.u. |
| GAGGCCATTTTACGAGGGCCTCCTGGCCCTCGTAAAATGGCCTCACACTC | 5210 a.u. |
| GAGGCCGTTTTCCGAGGGCCTCCTGGCCCTCGGAAAACGGCCTCACACTC | 3760 a.u. |
| GAGGCCGTTTCACGAGGGCCTCCTGGCCCTCGTGAAACGGCCTCACACTC (5mC at 11) | 4690 a.u. |
| GAGGCCGTTCGACGAGGGCCTCCTGGCCCTCGTCGAACGGCCTCACACTC (5mC at 34) | 4140 a.u. |
| GAGGCCGTTTCGTTGGGGCCTCCTGGCCCCAACGAAACGGCCTCACACTC (5mC at 33) | 4110 a.u. |
| GAGGCCGTCGTACGAGGGCCTCCTGGCCCTCGTACGACGGCCTCACACTC (5mC at 35) | 4090 a.u. |
| GAGGCCGTGTTACGAGGGCCTCCTGGCCCTCGTAACACGGCCTCACACTC (5mC at 36) | 4240 a.u. |
| GAGGCCCGTTTATTGGGGCCTCCTGGCCCCAATAAACGGGCCTCACACTC (5mC at 7) | 4730 a.u. |
| GAGGCCGTTTTGCGAGGGCCTCCTGGCCCTCGCAAAACGGCCTCACACTC | 4190 a.u. |
| GAGGCCGTTATATTGGGGCCTCCTGGCCCCAATATAACGGCCTCACACTC | 4490 a.u. |
| GAGGCCGTTTTATTGGGGCCTCCTGGCCCCAATAAAACGGCCTCACACTC (5mC at 29) | 4840 a.u. |
| GAGGCCGTTTTACGCGGGCCTCCTGGCCCGCGTAAAACGGCCTCACACTC (5mC at 15) | 4050 a.u. |
| GAGGCCGTTTTATTGCGGCCTCCTGGCCGCAATAAAACGGCCTCACACTC | 4600 a.u. |
| GAGGCCGTTTTACGCGGGCCTCCTGGCCCGCGTAAAACGGCCTCACACTC (5mC at 29) | 4490 a.u. |
| GAGGCCGTTTTACGGGGGCCTCCTGGCCCCCGTAAAACGGCCTCACACTC (5mC at 13 31) | 5180 a.u. |
| GAGGCCGTTTTACGACGGCCTCCTGGCCGTCGTAAAACGGCCTCACACTC (5mC at 28) | 4570 a.u. |
| GAGGCCGTTTTATTGGGGCCTCCTGGCCCCAATAAAACGGCCTCACACTC (5mC at 28) | 5030 a.u. |

Block 2
Target: Histone acetyltransferase KAT6A, winged helix 1, GST fusion (KAT6A, Homo sapiens, UniProt Q92794, residues 1-85)
Technique: protein binding microarray
Molecule type: double-stranded DNA, one strand shown
Medium: in vitro
Tested at: not given
Setting: 8-mer, flanks averaged, mean of 2 arrays, mostly near background
Baseline: not given
Direction: higher = stronger binding
Construct (chain): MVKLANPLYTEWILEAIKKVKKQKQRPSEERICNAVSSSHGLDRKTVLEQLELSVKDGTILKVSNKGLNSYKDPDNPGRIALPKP
| Strand | E-score |
| --- | --- |
| ACCCATCC | -0.035 |
| TCCGATCA | 0.00349 |
| ATGGCAGC | -0.0237 |
| TGCTTTAA | -0.104 |
| ATCAAATC | -0.287 |
| AAGTCTTC | -0.233 |
| CATGCGCA | 0.232 |
| CTGAAGTA | -0.137 |
| ACTTGGCT | -0.242 |
| GCTAACTA | 0.036 |
| AACGTGGT | -0.137 |
| AATCGTAA | -0.102 |
| ACTAGATG | -0.165 |
| CTGTAAAA | -0.181 |
| GAATTTAC | 0.00173 |
| AAGTTACT | -0.129 |
| ACAGACCC | 0.0122 |
| AAAAGCGT | 0.0537 |
| CCCCAATA | -0.219 |
| GGTCGTCA | 0.00826 |
| TTGTTAAA | -0.117 |
| GCCCCCAC | 0.00566 |
| CACGTTAA | -0.236 |
| GCAAACAA | -0.192 |
| ACTTTGAA | -0.277 |

Block 3
Target: Interferon regulatory factor 5, full length, phosphomimetic (IRF5, Homo sapiens, UniProt Q13568-2, residues 1-514, S451D/S453D/S456D/S462D)
Technique: protein-binding microarray
Molecule type: double-stranded DNA, one strand shown
Medium: in vitro
Tested at: 940 nM top
Setting: 60-bp whole probe
With: salmon DNA 0.4 mg/ml
Baseline: random background probes
Direction: higher = stronger binding
Shared flanks, not repeated: GCCTAGCAC … GTCTTGATTCGCTTGACGCTGCTG
| Strand | fitted relative affinity [z-score] |
| --- | --- |
| TCAGTTTCCAGTATATTACTGTGCTAG | 1.37 |
| TTAGGTATCGAGTTTCGGTTAGTGCTA | 8.46 |
| TTAGATATCTGGTTTCGATTAGTGCTA | 7.64 |
| GACGATATCGAGTTTCGAGACGTGCTA | 3.13 |
| TTAGGTATCGCGACTGGGTTAGTGCTA | 0.885 |
| TTAGGACTGGATATCGGTTAGTGCTAG | -0.205 |
| GACGGTATCCACACTGGGGACGTGCTA | 0.0761 |
| TCAGTTTCTGGTTTATTACTGTGCTAG | 5.25 |
| GACGGTATCAGTCTCGGGACGTGCTAG | 3.27 |
| GACGGTATCGAGTTTCGGGACGTGCTA | 5.5 |
| GGCGGACTGGGGTTTCGGGACGTGCTA | 1.62 |
| GCCGGTATCCTTCTCCTGACGTGCTAG | 1.04 |
| TTAGTTTTCCTACTGCTTTAGTGCTAG | 1.47 |
| GACGGACTGGGTATCGCGACGTGCTAG | -0.317 |
| TTAGATATCAGAGTGGATTAGTGCTAG | -0.537 |
| GACGATTTCAGTGCCGAGACGTGCTAG | -0.137 |
| TTACGTTTCGACACTGGGTTAGTGCTA | 4.32 |

Block 4
Target: ABI1, truncated, D143A, DHFR fusion (Arabidopsis thaliana)
Technique: DHFR PCA, deep sequencing
Medium: yeast
Setting: methotrexate growth selection, single substitutions
With: (+)-ABA 17 µM
Baseline: wild-type fitted maximum
Direction: higher = stronger binding
Starting sequence: PYL1, truncated, DHFR fusion (Arabidopsis thaliana); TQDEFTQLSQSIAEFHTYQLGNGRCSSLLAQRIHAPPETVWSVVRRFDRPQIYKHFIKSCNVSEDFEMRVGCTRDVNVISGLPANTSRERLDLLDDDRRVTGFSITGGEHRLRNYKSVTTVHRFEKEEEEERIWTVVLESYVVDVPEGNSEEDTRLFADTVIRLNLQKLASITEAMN
| Change | relative binding score |
| --- | --- |
| H122Y | 12.8% |
| Q7Y | 81.8% |
| S59D | 86.7% |
| R46I | 2.62% |
| R113V | 86.2% |
| I12T | 24.2% |
| I172C | 69.2% |
| V40S | 5.89% |
| V145P | 1.53% |
| Y115I | 11.9% |
| D96I | -10.2% |
| Q31P | -9.27% |
| N114A | 34% |
| S42W | 34.8% |

Other studies, line by line
P1: CDAN1 docking peptide (human); RGARSQLFPPTEA; partner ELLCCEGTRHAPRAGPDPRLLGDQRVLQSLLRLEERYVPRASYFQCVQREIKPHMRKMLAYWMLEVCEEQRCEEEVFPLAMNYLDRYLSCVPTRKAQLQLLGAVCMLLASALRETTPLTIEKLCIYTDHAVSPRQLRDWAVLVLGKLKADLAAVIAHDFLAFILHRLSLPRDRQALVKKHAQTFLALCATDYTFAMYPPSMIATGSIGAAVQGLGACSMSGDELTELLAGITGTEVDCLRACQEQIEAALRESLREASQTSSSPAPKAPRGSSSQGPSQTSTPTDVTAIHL
| Molecule | tested on | assay | system | conditions | scale | measurement | value |
| --- | --- | --- | --- | --- | --- | --- | --- |
| LLRRLQDVANDRG | Saccharomyces cerevisiae | binding, competitive growth deep sequencing | peptide, cyclin D3-Cln2 fusion strain | concentration not given, peptide library 2 | direction not given | growth enrichment score | 8.17 |
| P1 P9A | CCND3, cyclin fold, Cln2 fusion (human) | yeast growth competition, sequencing | yeast | weak parent motif | baseline: not given, higher = stronger binding | normalised enrichment score | 0.414 |

Excerpt of the above (block 2):
| Strand | E-score |
| --- | --- |
| TGCTTTAA | -0.104 |
| CACGTTAA | -0.236 |
| AAGTTACT | -0.129 |
| GCCCCCAC | 0.00566 |
| ACCCATCC | -0.035 |
| TTGTTAAA | -0.117 |
| ATCAAATC | -0.287 |
| GGTCGTCA | 0.00826 |
| CATGCGCA | 0.232 |
| ACTTTGAA | -0.277 |
